Results pooled from the literature.
“And” joins repeats or separate records; there may be more than shown. ± marks the error that the study gave.
Target: Cytochrome P450 3A4 (CYP3A4, Homo sapiens, UniProt P08684)
Chain of UniProt P08684 (whole entry, looked up): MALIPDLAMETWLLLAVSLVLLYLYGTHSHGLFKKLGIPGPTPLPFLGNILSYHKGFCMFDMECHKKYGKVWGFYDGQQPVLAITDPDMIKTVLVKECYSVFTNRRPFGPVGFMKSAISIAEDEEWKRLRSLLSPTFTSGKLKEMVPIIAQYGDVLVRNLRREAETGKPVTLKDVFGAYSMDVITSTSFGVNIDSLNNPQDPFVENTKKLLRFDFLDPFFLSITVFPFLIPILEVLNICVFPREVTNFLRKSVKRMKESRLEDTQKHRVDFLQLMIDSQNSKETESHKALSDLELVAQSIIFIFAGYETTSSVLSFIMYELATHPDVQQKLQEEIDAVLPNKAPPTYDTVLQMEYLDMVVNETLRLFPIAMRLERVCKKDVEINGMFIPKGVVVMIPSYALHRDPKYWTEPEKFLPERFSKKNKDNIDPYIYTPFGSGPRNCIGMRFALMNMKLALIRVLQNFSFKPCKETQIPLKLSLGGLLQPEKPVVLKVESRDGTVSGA

SMILES | test | test system | setting | scale | quantity | result
CC[C@H]1[C@@H](O)[C@@H]2[C@H](CC[C@]3(C)[C@@H]([C@H](C)CCNC(=O)NS(=O)(=O)c4ccc(C(C)(C)C)cc4)CC[C@@H]23)[C@@]2(C)CC[C@@H](O)C[C@@H]12 | substrate | human, plasma | 10 mg, alone, study day 1 |  | elimination rate constant geometric mean | 0.0667 h⁻¹
CC(=O)C(C)n1ncn(-c2ccc(N3CCN(c4ccc(OC[C@H]5CO[C@](Cn6cncn6)(c6ccc(Cl)cc6Cl)O5)cc4)CC3)cc2)c1=O (stereo partly drawn) | inhibitor | human liver microsomes | added: testosterone |  | IC50 | 0.0057 µM
O=C(NCCN1CCCC1)c1cc(-c2ccc(CN3CCOCC3)cc2)nc2ccc(F)cc12 |  | pooled human liver microsomes | metabolism-dependent inhibition, added: midazolam | reference: IC50 without over with preincubation | IC50 shift ratio | 1 and > 1.2 and > 1.9
CCCCC1=NC2(CCCC2)C(=O)N1Cc1ccc(-c2ccccc2S(=O)(=O)Nc2noc(C)c2C)c(COCC)c1 | substrate | human male, plasma | oral, dose not given, added: itraconazole | reference: with over without itraconazole | AUC ratio | 2.74
OCc1ccc(-c2nn(Cc3ccccc3)c3ccccc23)o1 | substrate | recombinant human enzyme |  |  | half-life | 2.9 min
NC(=O)NC1CCC(CCN2CCN(c3cccc(Cl)c3Cl)CC2)CC1 (stereo not drawn) |  | human | oral, dose not given, outlier subject excluded, added: erythromycin | reference: compound alone | AUC(tau) increase | 52%
CSc1ccccc1C(=O)NCCn1cc(C(=O)NCc2cccc(C)n2)c(=O)c2cc3c(cc21)OCO3 | enzyme activity, inhibitor | human liver microsomes | 20 min, no NADPH preincubation, added: testosterone 50 µM |  | IC50 | 43.1 µM
N#C[C@H](C[C@@H]1CCCNC1=O)NC(=O)[C@H](CC1CC1)NC(=O)c1cc2cccc(Cl)c2[nH]1 | NADPH metabolic stability |  | 2 µM, pH 7.4 |  | half-life | 0.89 min
C=CC(=O)Nc1cc(Nc2nccc(-c3cn(C)c4ccccc34)n2)c(OCC(F)(F)F)nc1N(C)CCNC | substrate, recombinant enzyme |  |  |  | formation clearance | 4.73 µL/min/pmol
Nc1ncnc2c1c(-c1ccc(Oc3ccccc3)cc1)nn2[C@@H]1CCCN(C(=O)C(O)CO)C1 (stereo partly drawn) |  | human patients | dose not given, CYP3A4 *1/*22 carriers | reference: other genotypes | AUC | increased
CC[C@H](C)[C@@H]([C@@H](CC(=O)N1CCC[C@H]1[C@H](OC)[C@@H](C)C(=O)N[C@@H](Cc1ccccc1)C(=O)NCCCO)OC)N(C)C(=O)[C@@H](NC(=O)[C@H](C(C)C)N(C)C)C(C)C | recombinant CYP3A4 |  | 1 µM |  | CLint | 0.3 µL/min/pmol
COc1ccc(F)cc1C(=O)NCc1ccc(-c2nn([C@@H](C)C(F)(F)F)c(N)c2C(N)=O)cc1 | time-dependent inhibitor | human liver microsomes |  |  | kinact | 0.000678 s⁻¹
C=CC(=O)Nc1cc(Nc2nccc(-c3cn(C)c4ccccc34)n2)c(OCC(F)(F)F)nc1N(C)CCN(C)C | substrate, recombinant enzyme, substrate depletion |  |  |  | fraction metabolised | 80.2%
Cc1cccc(F)c1N1CCC(N2Cc3cn(CC(C)(F)F)nc3N(Cc3ccccc3C(F)(F)F)C2=O)CC1 | testosterone 6β-hydroxylation |  |  |  | IC50 | > 10 µM
Nc1ccc(S(=O)(=O)Nc2ccnn2-c2ccccc2)cc1 | enzyme activity, inhibitor |  | 10 µM |  | inhibition | -20%
CSc1ccccc1C(=O)NCCn1cc(C(=O)NCc2cccc(C)n2)c(=O)c2cc3c(cc21)OC(F)(F)O3 | enzyme activity, inhibitor | human liver microsomes | 20 min, 30 min NADPH preincubation, added: testosterone 50 µM |  | IC50 | 4.87 µM
C=C(F)C(=O)N1CCN(c2nc(OC[C@@H]3CCCN3C)nc3c2CCN(c2cccc4cccc(Cl)c24)C3)C[C@@H]1CC#N |  | healthy volunteers, plasma | 200 mg, alone, median |  | Tmax | 6 h
C[C@H]1CN(C2COC2)CCN1c1ccc(Nc2cc(-c3ccnc(N4CCn5c(cc6c5CC(C)(C)C6)C4=O)c3CO)cn(C)c2=O)nc1 | substrate | recombinant enzyme | 1 µM, 60 min |  | remaining compound | 29.3 ± 1.7%
Cc1cc(C)c(CNC(=O)c2cc(Cl)c3c(c2C)O[C@@](C)([C@H]2CC[C@H](N(C)C)CC2)O3)c(=O)[nH]1 |  | recombinant human CYP3A4 | 0 and 30 min |  | CLint | 0.342 µL/min/pmol
Cc1cc(Nc2ncnc3ccc(NC4=NC(C)(C)CO4)cc23)ccc1Oc1ccn2ncnc2c1 |  | human, plasma | oral, 300 mg, day 1, single dose alone |  | AUC(0-last), geometric mean | 3320 ng·h/mL
CN(C(=O)n1cnc(-c2ccc[n+]([O-])c2)c1)C1CCCCC1 | inhibitor | pooled human liver microsomes | concentration not given, 30 min pre-incubation, without cofactor |  | time-dependent inhibition | no effect
CCC(C)n1ncn(-c2ccc(N3CCN(c4ccc(OCC5COC(Cn6cncn6)(c6ccc(Cl)cc6Cl)O5)cc4)CC3)cc2)c1=O (stereo not drawn) |  | human, both sexes, plasma | oral, 200 mg, multiple doses, added: pirtobrutinib |  | AUC | 6320 ng·h/mL
C=CC(=O)N(C)CCOc1c(N)ncnc1-c1cc(F)cc(NC(=O)c2ccc(C3CC3)cc2F)c1C |  |  |  |  | fraction metabolised by CYP3A4 | 97.8%
Cn1cncc1[C@@](N)(c1ccc(Cl)cc1)c1ccc2c(c1)c(-c1cccc(Cl)c1)cc(=O)n2C |  | human liver microsomes |  |  | share of metabolism by CYPs | 39.4%
CCCCCCCC/C=C1\C=C(C(F)(F)F)c2cc(O)c(O)cc21 | enzyme activity, inhibitor | pooled human liver microsomes | concentration not given, 30 min, 37 °C, added: midazolam |  | inhibition | no inhibition
Cc1cc(Nc2ncnc3ccc(NC4=NC(C)(CO)CO4)cc23)ccc1Oc1ccn2ncnc2c1 (stereo not drawn) |  | human, plasma | tucatinib, day 6, added: itraconazole |  | half-life (arithmetic mean) | 14.3 h
CNC(=O)NC1CCC(CCN2CCN(c3cccc(Cl)c3Cl)CC2)CC1 (stereo not drawn) |  | human | oral, dose not given, outlier subject excluded, added: erythromycin | reference: compound alone | AUC(tau) increase | 8%

For quick reference, copied from above:
SMILES | test | test system | setting | scale | quantity | result
N#C[C@H](C[C@@H]1CCCNC1=O)NC(=O)[C@H](CC1CC1)NC(=O)c1cc2cccc(Cl)c2[nH]1 | NADPH metabolic stability |  | 2 µM, pH 7.4 |  | half-life | 0.89 min
CN(C(=O)n1cnc(-c2ccc[n+]([O-])c2)c1)C1CCCCC1 | inhibitor | pooled human liver microsomes | concentration not given, 30 min pre-incubation, without cofactor |  | time-dependent inhibition | no effect
CNC(=O)NC1CCC(CCN2CCN(c3cccc(Cl)c3Cl)CC2)CC1 (stereo not drawn) |  | human | oral, dose not given, outlier subject excluded, added: erythromycin | reference: compound alone | AUC(tau) increase | 8%
CC[C@H]1[C@@H](O)[C@@H]2[C@H](CC[C@]3(C)[C@@H]([C@H](C)CCNC(=O)NS(=O)(=O)c4ccc(C(C)(C)C)cc4)CC[C@@H]23)[C@@]2(C)CC[C@@H](O)C[C@@H]12 | substrate | human, plasma | 10 mg, alone, study day 1 |  | elimination rate constant geometric mean | 0.0667 h⁻¹
